Measured values gathered from unrelated publications.
Protocols differ between the studies behind these lines. “And” joins repeats or separate records; there may be more than shown.
MAP3K7 with TAB1: Mitogen-activated protein kinase kinase kinase 7, with TAB1 (MAP3K7, Homo sapiens, UniProt O43318)
Chain of UniProt O43318 (whole entry, looked up): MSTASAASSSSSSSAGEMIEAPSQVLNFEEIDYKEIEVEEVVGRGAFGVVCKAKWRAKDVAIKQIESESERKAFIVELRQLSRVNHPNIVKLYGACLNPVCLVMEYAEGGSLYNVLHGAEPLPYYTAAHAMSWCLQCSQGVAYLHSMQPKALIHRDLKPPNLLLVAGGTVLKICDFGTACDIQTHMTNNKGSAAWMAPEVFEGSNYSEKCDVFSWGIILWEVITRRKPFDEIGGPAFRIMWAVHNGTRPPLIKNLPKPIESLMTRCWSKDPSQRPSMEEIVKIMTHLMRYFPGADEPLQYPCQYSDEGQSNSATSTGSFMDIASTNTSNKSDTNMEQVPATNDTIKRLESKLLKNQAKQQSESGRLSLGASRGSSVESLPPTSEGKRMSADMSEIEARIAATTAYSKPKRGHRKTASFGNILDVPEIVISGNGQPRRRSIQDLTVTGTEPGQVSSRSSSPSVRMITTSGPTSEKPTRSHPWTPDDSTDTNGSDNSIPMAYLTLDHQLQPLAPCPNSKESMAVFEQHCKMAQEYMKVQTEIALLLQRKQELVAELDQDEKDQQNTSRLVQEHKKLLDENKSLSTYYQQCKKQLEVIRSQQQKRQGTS
MAP3K7: Mitogen-activated protein kinase kinase kinase 7 (MAP3K7, Homo sapiens, UniProt O43318)

Structure (SMILES) | target | test | test system | conditions | scale | measurement | value
C=CC(=O)Nc1cccc(-c2cnc3[nH]cc(C(=O)NC(C)(C)C)c3n2)c1 | MAP3K7 with TAB1 | kinase activity, inhibitor, kinase panel | – | 0.1 µM | – | inhibition | 17% and 16%
c1ccc2c(Nc3cc(C4CCC4)[nH]n3)nc(Nc3ccc4nc[nH]c4c3)nc2c1 | MAP3K7 | enzyme activity, inhibitor | – | 0.25 µM | – | remaining activity | 2%
O=C=[N][Ru-4]123([n]4c5ccc(O)cc5c5c6c(c7cc(F)c[n+]1c7c54)C(=O)NC6=O)[S+]1CC[S+]2CC[S+]3CC1 (stereo not shown) | MAP3K7 | enzyme activity | – | 100 nM, human enzyme, with: 10 µM ATP | relative to: untreated | remaining activity | 107%
CNC(=O)C[C@H](Cc1ccc(C#N)cc1)NC(=O)c1cc(-c2ccc(CN[C@H](C)c3ccc(C)cc3)o2)ccc1Cl | MAP3K7 | enzyme activity, inhibitor | – | 1 µM | – | activity vs control | 103%
C=CC(=O)N1CCCC(n2c(=O)c3ncccc3n(Cc3ccc(Oc4ccccc4)cc3)c2=O)C1 (stereo not shown) | MAP3K7 | cell-free assay, competition with immobilised ligand | – | 1 µM | – | remaining binding | 84%
CCn1cc(C(=O)O)c(=O)c2c(N)c(F)c(NC3CCCCC3)cc21 | MAP3K7 | kinase activity | – | 0.1 µM, with: ATP at Km | – | inhibition | 9%
C=CC(=O)Nc1cc(-c2nn(C3CCN(CCNC(=O)[C@H](C)CCC45CC6CC(CC(C6)C4)C5)CC3)c3ncnc(N)c23)ccc1Oc1ccccc1 | MAP3K7 | inhibitor, KiNativ profiling | biochemical | 2 µM | – | inhibition | 22%
COc1cc(Nc2nccc(-c3cnn4nc(OC)ccc34)n2)cc(C(F)(F)F)c1 | MAP3K7 | binding, competition with immobilised ligand | – | 1 µM | – | remaining binding | 78%
O=C(O)CCC(=O)c1cccc(NS(=O)(=O)c2c[nH]c3ncccc23)c1 | MAP3K7 | kinase activity, radiometric | – | 10 µM | – | remaining activity | 106%
Cc1cccc(O[C@H]2CCC[C@@H](C(C)CNCc3ccncc3)C2)c1 (relative stereo) | MAP3K7 with TAB1 | kinome profiling | – | 1 µM | – | inhibition | -1%
NC(=O)[C@@H](O)C[C@H]1CCc2sc3ncnc(O[C@H]4CC[C@H](N5CCOCC5)CC4)c3c21 | MAP3K7 | enzyme activity, inhibitor | – | 10 µM | – | inhibition | 1%
CN1CCN(Cc2ccc(-c3ccc(CO[C@H]4CCC[C@@H]4NC(=O)c4cc(-c5cnn(C)c5)cnc4N)cc3)cc2)CC1 | MAP3K7 with TAB1 | SelectScreen kinase profiling | – | 0.1 µM | – | inhibition | 3%
CS(=O)(=O)Nc1cccc(-c2csc3cnc(Nc4ccc(N5CCN(CCCCCOc6cccc7c6C(=O)N(C6CCC(=O)NC6=O)C7=O)CC5)cc4)nc23)c1 (stereo not shown) | MAP3K7 | probe labelling, inhibitor, KiNativ chemoproteomics | MOLT-4 | 1 µM | – | inhibition | -15.7%
CN1CC[C@@H](COc2cnc(C#N)cc2-c2ccn3nc(NC(=O)C4CC4)cc3c2)C1 | MAP3K7 | enzyme activity, inhibitor | – | 1 µM | – | inhibition | -3%
Cc1ccc(-c2c(/C=C(\C#N)C(=O)NC(C)C)n(CCCO)c3ncnc(N)c23)cc1 | MAP3K7 | cell-free assay, competition with immobilised ligand | – | 1 µM | – | remaining binding | 100%
COc1ccc(NC(=O)Nc2ccc3c(c2)C(=O)N(C(C)CO)CC(C)C(CN(C)Cc2ccc4c(c2)OCO4)O3)cc1 (stereo not shown) | MAP3K7 | kinase activity, KinaseProfiler | – | 0.03 µM, species human | relative to: control | remaining activity | 82%

Some of these lines once more:
Structure (SMILES) | target | test | test system | conditions | scale | measurement | value
NC(=O)[C@@H](O)C[C@H]1CCc2sc3ncnc(O[C@H]4CC[C@H](N5CCOCC5)CC4)c3c21 | MAP3K7 | enzyme activity, inhibitor | – | 10 µM | – | inhibition | 1%
CN1CCN(Cc2ccc(-c3ccc(CO[C@H]4CCC[C@@H]4NC(=O)c4cc(-c5cnn(C)c5)cnc4N)cc3)cc2)CC1 | MAP3K7 with TAB1 | SelectScreen kinase profiling | – | 0.1 µM | – | inhibition | 3%
